Results pooled from the literature.
Protocols differ between the studies behind these lines. ± gives the spread as reported.

CCCC(CCC(=O)O)NC(=O)c1ccc2c(c1)OCO2 (centres unmarked) — Tmax (male Sprague-Dawley rat, plasma; oral, 50 mg/kg of parent drug): 1.75 h
Cc1noc(C)c1Cn1cc(N2C(=O)CN(Cc3cccc(OS(=O)(=O)O)c3)C2=O)cn1 — Tmax (rat Sprague-Dawley male, plasma; oral, 30 mg/kg of parent drug): 0.5 h
COC(=O)/C=C/C(=O)c1ccc(OC)cc1 — Tmax (Sprague-Dawley rat, both sexes, plasma; oral, 100 mg/kg): 0.63 ± 0.49 h
CCCC(CCC)NC(=O)c1ccc(OS(=O)(=O)O)c(OC)c1 — Tmax (male Sprague-Dawley rat, plasma; oral, 20 mg/kg of parent drug): 1 h
Cc1noc(C)c1Cn1cc(N2C(=O)CN(Cc3cccc(O[C@@H]4O[C@H](C(=O)O)[C@@H](O)[C@H](O)[C@H]4O)c3)C2=O)cn1 — Tmax (rat Sprague-Dawley male, plasma; oral, 10 mg/kg of parent drug): 1 h
Cc1ccc(OCC(=O)O)cc1 — Tmax (Sprague-Dawley rat, male, plasma; oral, 100 mg/kg/day of parent drug, day 1, 90-day repeated dosing): 3 h
N[C@@H](COc1ccccc1C(F)(F)F)c1ccccc1 — Tmax (male Sprague-Dawley rat; oral, 25 mg/kg): 1.5 h
Cc1cc(-c2ccc(NC(=S)Nc3ccc(CNC(=O)CCC(C(=O)O)N4CCN(CC(=O)O)CCN(CC(=O)O)CC4)cc3)c(C)c2)ccc1/N=N/c1ccc2c(S(=O)(=O)O)cc(S(=O)(=O)O)c(N)c2c1O (centres unmarked) — Tmax (dynamic PET/CT; Sprague-Dawley rats female, lumbar spinal canal L1-L2; intrathecal lumbar infusion, median): 1.25 h

Excerpt of the above:
N[C@@H](COc1ccccc1C(F)(F)F)c1ccccc1 — Tmax (male Sprague-Dawley rat; oral, 25 mg/kg): 1.5 h
